Experimental data gathered from unrelated publications.
Every numbered part comes from another study and shows a few of its results, in no order.

Set 1
Target: RING finger protein unkempt homolog, zinc fingers 1-6, GST-SBP tag (UNK, Homo sapiens, UniProt Q9C0B0, residues 30-357)
Technique: RNA Bind-n-Seq
Molecule type: RNA
Matrix: in vitro
Tested at: not given
Notes: RNA with constant flanks, human and mouse sites, ends assumed
Relative to: input RNA pool
Reading: higher = stronger binding
Constant ends, left off below: GGGAGUUCUACAGUCCGACGAUC … CAACAGAGGAUUGAGCAUCA
Residues (chain): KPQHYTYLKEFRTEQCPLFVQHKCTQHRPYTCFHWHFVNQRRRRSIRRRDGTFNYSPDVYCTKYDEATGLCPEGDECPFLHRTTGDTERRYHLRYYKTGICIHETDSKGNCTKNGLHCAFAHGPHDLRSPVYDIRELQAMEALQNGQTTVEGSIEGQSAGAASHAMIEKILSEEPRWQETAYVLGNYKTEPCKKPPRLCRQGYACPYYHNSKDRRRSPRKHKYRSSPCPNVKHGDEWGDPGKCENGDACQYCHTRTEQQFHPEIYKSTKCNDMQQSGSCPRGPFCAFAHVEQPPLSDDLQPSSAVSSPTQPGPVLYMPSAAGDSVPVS
The bound/input enrichment of `AUGAGAGCUCCAAAACACUUUCUUCCUGAGAUGCUAAGCAAAGUGAUCAUCCUGUCACUUGAUAGAAGUGAUGAAGAUAAAGAAAAAGCAAGCUCUUUAAUCAGUUUACUCAAACAGGAA` is reported as 0.0873 ratio.
For `GACUGAUUCUCAACUGAACAUUAUGUCGUUACUUUGAUAAGCAUUCCACUUUUGUUAUUUAUUAGUGCUAUCUUUUUUUUUUACGUGUUAAAUCUUGUGAUUAUUAAAAUAAAGUACCAU`, the bound/input enrichment was 2.35 ratio.
With `UGUGGAAGUGCCCCGUGUUUGCUAUGCCGAUGCUGUCCUAGUGGAAACAACUCCACUGUAACUAGAUUGAUCUAUGCACUUUUCUUGCUUGUUGGAGUAUGUGUAGCUUGUGUAAUGUUG` the bound/input enrichment was 0.246 ratio.
`UUAGUAUCCAAUUUCGAUCAGCAGCAGCUCGCUAAUUUCUGCCGGAUUCUGGCUGUCACCAUUUCAGAGAUGGAUACAGGGAAUGAUGACAAGCACACGCUUCUUGCCAAAAAUGCUCAA` gave a bound/input enrichment of 0.222 ratio.
The bound/input enrichment of `UUCCUGCAUUGCUGAGUCUUUGAAGUUCUACCACAAAGGGAUCGCCUCCCUAACGGCCGCCAGCACACCGCUGAAUCCUUUGAGCUUUCAGUGUGAGUUUGUAAAGCUCCGGAUCGAUCU` is reported as 0.128 ratio.
For `AAGAGGGCGAACAUUCGACUUCCACCUGAAGUAAAUCGGAUAUUGUAUAUAAGAAAUUUGCCAUACAAAAUCACAGCUGAAGAAAUGUAUGAUAUAUUUGGGAAAUAUGGACCUAUUCGU`, the bound/input enrichment was 0.125 ratio.
The bound/input enrichment of `UGACCCUAUUUUCUUACAUGGCUCAAAUAAAACUAGUAUGCUGUUGUAUGAAUCUUUUACUGACCACACCAUCCAACUAUAAAAAUAUAACGGGACAGCUUUAAACCAAAGAUCAUGUUU` is reported as 0.833 ratio.
With `AGGAGGAGGUUAAAGGGUGAGAGUGGGGUGGAAGACUGUGUCAUGGCUCUGGAGACACUGUUCAGUGUCCUGCUUUCUCUGUGCAGACUGAUGGCCCCUUACACGCCCUUUCUGACUGAG` the bound/input enrichment was 0.0603 ratio.
For `CUUUCCACCAGAAAGCUAUCUCUGGGCUAUAUUUCUUUCUACCUUUUUAGAAAUCAGUCCUUUUGUUAAGUUGUUUAUAACUCCAAUAGAAAAAUAAGGCAUGGUCGGUGGGUAGGGAUG`, the bound/input enrichment was 3.98 ratio.
`GGUUUUGUUCCUGGCUUUCAGAAGAGCAAUGCCAAGACCCCUCCCAGCGUCCACAUCGUCCUCUGGCAGGAGCACCUGCCCCUCUGCCUCCCACCUGCCCCUUGCACCCCCUGCGGCCCC` has a bound/input enrichment of 0.471 ratio.
The bound/input enrichment of `GGUUUAGGGUAGGGGUUAAUCUGUUGGGGGUUGAUGUGUUUAGCAAGAAGCUACUCCUAGCUUUUGCUAAAAUAUGGUUGGCACUGCCUCUUGUGGCACAGGCCAUAAUUGUUCCAUAGA` is reported as 1.21 ratio.

Set 2
Target: human cyclin A2
Effect on: peptide binding
Technique: competitive growth sequencing
Molecule type: peptide
Organism: Saccharomyces cerevisiae
Strain: cyclin A2-Cln2 fusion strain
Tested at: concentration not given
Notes: mutational scanning library
Relative to: unfused Cln2 strain
Reading: direction not given
`TKVRANAFNQELL` gave a binding score of 0.0529.
`PKPLKKLRFDIEG` gave a binding score of 0.358.
`SKACARAFGPVDS` gave a binding score of -0.22.
The binding score of `TSACRSLFGPVDH` is reported as 1.23.
The binding score of `LPAKRKLDLEGIG` is reported as 2.63.
`YSPLLPPFGLSYT` has a binding score of 2.03.
With `PKPLAKARFDIEG` the binding score was 0.00632.
With `PPVKARADLETDH` the binding score was 0.313.

Set 3
Target: Transcription factor Sp1 (SP1, Homo sapiens, UniProt P08047, residues 1-785, full length assumed)
Sequence of UniProt P08047 (whole entry, looked up): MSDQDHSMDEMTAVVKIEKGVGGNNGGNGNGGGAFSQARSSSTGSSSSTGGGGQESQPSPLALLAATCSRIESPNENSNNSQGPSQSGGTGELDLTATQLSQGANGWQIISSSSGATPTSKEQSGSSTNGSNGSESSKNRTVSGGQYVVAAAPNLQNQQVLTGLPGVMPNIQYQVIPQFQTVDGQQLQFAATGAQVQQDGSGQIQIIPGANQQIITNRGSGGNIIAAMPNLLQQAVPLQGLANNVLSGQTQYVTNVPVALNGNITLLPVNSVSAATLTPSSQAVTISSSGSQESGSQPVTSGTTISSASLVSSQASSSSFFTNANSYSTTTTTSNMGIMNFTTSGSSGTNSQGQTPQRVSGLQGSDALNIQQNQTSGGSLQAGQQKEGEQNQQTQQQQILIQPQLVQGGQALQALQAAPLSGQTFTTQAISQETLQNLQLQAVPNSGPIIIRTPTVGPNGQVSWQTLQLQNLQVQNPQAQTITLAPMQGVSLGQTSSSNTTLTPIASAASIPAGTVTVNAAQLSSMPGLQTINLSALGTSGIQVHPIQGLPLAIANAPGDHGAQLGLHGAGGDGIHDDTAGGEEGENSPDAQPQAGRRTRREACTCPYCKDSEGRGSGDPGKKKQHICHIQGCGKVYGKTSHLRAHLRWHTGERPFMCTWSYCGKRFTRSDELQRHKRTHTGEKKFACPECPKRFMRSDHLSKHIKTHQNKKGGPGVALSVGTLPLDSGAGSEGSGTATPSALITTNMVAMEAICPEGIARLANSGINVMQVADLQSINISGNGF
Technique: protein-binding microarray
Molecule type: double-stranded DNA, one strand shown
Matrix: in vitro
Tested at: not given
Notes: k-mer, scored over probes, only values ≥0.25
Reading: higher = stronger binding
`GTAAGGTA` has an E-score of 0.264.
The E-score of `ATATAAAC` is reported as 0.259.
`GGGGCATA` gave an E-score of 0.277.
The E-score of `AACTCCCC` is reported as 0.288.
`CACCACCC` gave an E-score of 0.344.
`ACATGTAG` has an E-score of 0.302.
For `ACGCCCCT`, the E-score was 0.479.
With `AACGTAGA` the E-score was 0.258.
`GACGCCCA` has an E-score of 0.333.
For `CGCCTCCC`, the E-score was 0.364.
For `ATCCCCAT`, the E-score was 0.264.
`ATGGAGGG` gave an E-score of 0.312.
For `CTCCCCAC`, the E-score was 0.296.
`CCCCTTGC` has an E-score of 0.256.

Set 4
Target: Sal-like protein 4, full length isoform B (SALL4, Homo sapiens, UniProt Q9UJQ4-2, residues 1-616)
Technique: universal PBM
Molecule type: double-stranded DNA, one strand shown
Matrix: in vitro
Tested at: not given
Notes: 8-mer, flanks averaged, mean of replicates
Reading: higher = stronger binding
For `CATACTGA`, the E-score was 0.159.
With `AGATGTCG` the E-score was -0.069.
`GTAAAGCA` gave an E-score of 0.111.
`TCGAGTCA` has an E-score of -0.137.
`CAGCAAAG` has an E-score of -0.0942.
With `CACTCCTA` the E-score was 0.00988.
`CAATCTGA` has an E-score of 0.032.
For `ATATCGAC`, the E-score was 0.206.
The E-score of `ATCTGATC` is reported as 0.0492.
For `CTACTCCC`, the E-score was -0.0759.
The E-score of `CGGATCGA` is reported as -0.274.
`CTCTAACA` gave an E-score of 0.0555.
With `TGCGCCAA` the E-score was -0.0134.
The E-score of `ATTAGTCA` is reported as 0.186.
`CTGCGAGC` has an E-score of -0.169.
`CAGGCCGG` gave an E-score of -0.364.
The E-score of `TCGTGGCA` is reported as -0.00377.
With `CATTGACA` the E-score was 0.0956.
For `GACTTCCC`, the E-score was -0.21.
For `TTATGCAA`, the E-score was 0.234.
`ACGTTACC` gave an E-score of -0.0559.
The E-score of `GAGGCTGC` is reported as -0.337.
The E-score of `AAGGAAAC` is reported as -0.0789.
With `ATCCGCAA` the E-score was 0.023.
The E-score of `AACGTTAG` is reported as 0.169.

Set 5
Target: Histone acetyltransferase KAT6A, winged helix 1, GST fusion (KAT6A, Homo sapiens, UniProt Q92794, residues 1-85)
Technique: protein binding microarray
Molecule type: double-stranded DNA, one strand shown
Matrix: in vitro
Tested at: not given
Notes: 8-mer, flanks averaged, mean of 2 arrays, mostly near background
Relative to: not given
Reading: higher = stronger binding
Target sequence (chain): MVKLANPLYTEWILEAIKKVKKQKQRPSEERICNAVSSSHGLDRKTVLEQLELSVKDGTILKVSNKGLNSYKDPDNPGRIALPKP
`ATGCGCTG` has an E-score of 0.2.
The E-score of `TATTGAGA` is reported as -0.206.
The E-score of `CCCCAGTA` is reported as -0.0106.
`TAACTCGA` gave an E-score of -0.132.
`CAGCACTC` has an E-score of -0.122.
For `CTCTGGCA`, the E-score was -0.237.
The E-score of `GGCCTTAC` is reported as 0.0968.
For `AAAGGGGC`, the E-score was -0.113.
For `AGCACCAC`, the E-score was -0.188.
`ACACGCAT` has an E-score of 0.128.
`GAGTTAGC` gave an E-score of -0.13.
`AAGGTCTG` gave an E-score of -0.0259.
With `ACGTTCTC` the E-score was -0.0542.
For `ACGAGTCC`, the E-score was 0.0138.
The E-score of `CGCTACTC` is reported as 0.249.
With `TCTTGCAA` the E-score was -0.17.
For `TCAGGTAA`, the E-score was -0.138.
`GATTGGGA` gave an E-score of -0.305.
`AGGAAGAT` has an E-score of -0.0531.
`AACTGGAT` gave an E-score of -0.298.
For `CTTAGCGA`, the E-score was 0.06.
`ACCCGGGA` has an E-score of 0.181.

Set 6
Target: RNA binding protein fox-1 homolog 2, RRM domain, GST-SBP tag (RBFOX2, Homo sapiens, UniProt O43251-10, residues 100-194)
Technique: RNA Bind-n-Seq
Molecule type: RNA
Matrix: in vitro
Tested at: 365 nM
Notes: natural RNA segment, single round, ends assumed
Relative to: no-protein control
Reading: higher = stronger binding
Constant ends, left off below: GGGAGUUCUACAGUCCGACGAUC … UGGAAUUCUCGGGUGCCAA
Target sequence (chain): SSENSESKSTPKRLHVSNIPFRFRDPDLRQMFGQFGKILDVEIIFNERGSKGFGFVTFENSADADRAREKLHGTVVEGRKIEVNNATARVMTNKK
`UGAGAAUCCAUUGGUGUGUACUGUGUGACACAAUGCCAACAAGCCUCUGGUUUCUAAUACUGGCAGGACCAACACACAUACUUUAGUGGGAAUAUAAUCUGUUUAGACGA` — result for “RBNS enrichment (R)”: 0.243.
`UCACCAUGUCAAUUCCCCUUUUCUUAGCAACCAGUUCAAUGUUCUGCCCCUUCAAUCUUACCUUUUCCUACAAUGCCAUGUAAGUGGGGUCAGCCAUGAUGUCAUGUGUG`: “RBNS enrichment (R)” 0.502.
`UAUAGUUUGGCUUCCUCUGUUAAGUCAUUCUACAAGGUGACUUGCCAUUUGAACUUUCGUAAGAGACCUCAGCAGUUAGACUGAGAAAAGUUAGAGUGCUGUAGUUAUGA`: “RBNS enrichment (R)” 0.402.
`UUGCCUAUUGAUGUUCCUUUGGGUCUGUGAGGUUCUGUAAACUGUGCUAGUGCUGACGAUGUUCUGUACAACUUAACUCACUGGCGAGAAUACAGCGUGGGACCCUUCAG`: “RBNS enrichment (R)” 0.579.
`CUCGCCAGCCUUCCCGUCCUUCAGUUCAACGACAUCUUUGGAGUGUUUUUGUUUUCUCUUCCAAGGGCCGUCCCGUUGUGUUAGGAAGGGUGAGUGGCUGGUUCCAGGGU`: “RBNS enrichment (R)” 0.415.
For `GCCUUCCUCCAUUUUUAUUCAUGGCUACUUGAGAAAGCAAAAGGAAAAAAUAAUAGUUAUCAGUAGUGUCACUGGAAAGAAGAGAGGAGGGACAAAACUGAGCAGCAGAA`, “RBNS enrichment (R)” read 1.25.
`ACAUAACUGUUCUUAAAAAGUCAAUUAUAAUUUGUAACUCACAUCCUUUGAGCUAAACUAAAUUAAAAUUACAGUAUUUAAUAAUUCUUUGGGCAUUUUUAAGAGGUCUG`: “RBNS enrichment (R)” 0.437.
`UGUUUGGGUAGGGCCAUUUAACUUCCAUUAUGCCAAACUUGGGAUGGGAUUUUCGAAGCAGACAACACUAUUUCAUCGUGUUUCAAAUUGGAACCUUGAGGCUAGUUAGU`: “RBNS enrichment (R)” 0.934.
For `UGGGGAGGGGAAACUUGUGAAUGUAACUUGCCUGUGCCGUGUGACGGUCACGUGGGCCUGGUCUUUUGUGUGUGAGGCCCUUGACCGUGUGGCCUCUGCCUGGCUGUUUG`, “RBNS enrichment (R)” read 3.76.
For `CGAAAUAUGGCCAAAGAUGUGCAGAACACAUUCUAUGACAUCGUGGCCGAGUUUGGGCCCAUGGAGCACACCCAGGCUGUGGACUAUGUUAAGAAGCUCAUGACCAAGGG`, “RBNS enrichment (R)” read 0.233.
`UAUAAAUCAGUUAUGUAGUAUCUUUUGUUUUUGUAGCUGAUUCCUUAACUUUCUUGUAUGCCUCUAGUAAUUUCAGAGAUUAAAUAUUGCUUUAAACUGUGAUACUUUGA`: “RBNS enrichment (R)” 0.43.
`UUGGCUUUCAGAAAGAUACAGUGAUAAUGUGUGUAUGAAUCAGUCACAAUGAAUUUUACUUGAAUAUUGUAUGUUGCAUUCCACUUCAUUUGAAAAUAAUGAAACCAUGU`: “RBNS enrichment (R)” 1.27.
